{"data": "Earlier results that unrelated publications cite", "ribH": "6,7-dimethyl-8-ribityllumazine synthase (ribH, Mycobacterium tuberculosis, UniProt P9WHE9)", "Matrix protein 2": "Matrix protein 2 (Influenza A virus, UniProt P0DOF5)", "note": "Each line is one published result; not all experiments were run side by side. Numbers after ± are the reported error.", "UniProt P9WHE9, sequence (whole entry, looked up)": "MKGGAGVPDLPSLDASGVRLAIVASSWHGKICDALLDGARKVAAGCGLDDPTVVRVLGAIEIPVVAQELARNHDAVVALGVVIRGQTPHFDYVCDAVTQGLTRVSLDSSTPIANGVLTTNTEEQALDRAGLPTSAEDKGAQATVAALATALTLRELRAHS", "UniProt P0DOF5, sequence (whole entry, looked up)": "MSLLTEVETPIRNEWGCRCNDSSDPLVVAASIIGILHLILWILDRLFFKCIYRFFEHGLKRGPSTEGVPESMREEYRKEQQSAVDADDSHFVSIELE", "UniProt P33535, sequence (whole entry, looked up)": "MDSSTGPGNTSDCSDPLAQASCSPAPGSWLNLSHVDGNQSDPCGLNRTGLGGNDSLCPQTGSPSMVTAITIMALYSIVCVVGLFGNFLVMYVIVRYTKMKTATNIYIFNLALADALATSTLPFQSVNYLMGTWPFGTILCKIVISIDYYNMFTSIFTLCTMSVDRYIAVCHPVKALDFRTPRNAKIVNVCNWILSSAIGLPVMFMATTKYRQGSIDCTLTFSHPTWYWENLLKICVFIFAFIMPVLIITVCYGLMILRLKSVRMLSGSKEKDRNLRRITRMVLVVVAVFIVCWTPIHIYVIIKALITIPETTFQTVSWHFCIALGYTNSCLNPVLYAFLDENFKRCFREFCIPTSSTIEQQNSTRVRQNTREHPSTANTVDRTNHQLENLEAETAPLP", "UniProt P35372, sequence (whole entry, looked up)": "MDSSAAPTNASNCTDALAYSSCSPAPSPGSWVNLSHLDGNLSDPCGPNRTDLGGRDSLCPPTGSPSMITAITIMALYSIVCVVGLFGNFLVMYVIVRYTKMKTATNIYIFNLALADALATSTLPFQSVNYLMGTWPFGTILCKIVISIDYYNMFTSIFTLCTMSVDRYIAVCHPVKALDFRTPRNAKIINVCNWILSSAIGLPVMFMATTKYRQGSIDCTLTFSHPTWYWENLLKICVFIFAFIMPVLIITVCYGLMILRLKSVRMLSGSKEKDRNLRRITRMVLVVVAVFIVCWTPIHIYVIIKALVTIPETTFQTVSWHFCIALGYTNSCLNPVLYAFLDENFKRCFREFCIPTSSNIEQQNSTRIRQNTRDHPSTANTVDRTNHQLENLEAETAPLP", "UniProt P46098, sequence (whole entry, looked up)": "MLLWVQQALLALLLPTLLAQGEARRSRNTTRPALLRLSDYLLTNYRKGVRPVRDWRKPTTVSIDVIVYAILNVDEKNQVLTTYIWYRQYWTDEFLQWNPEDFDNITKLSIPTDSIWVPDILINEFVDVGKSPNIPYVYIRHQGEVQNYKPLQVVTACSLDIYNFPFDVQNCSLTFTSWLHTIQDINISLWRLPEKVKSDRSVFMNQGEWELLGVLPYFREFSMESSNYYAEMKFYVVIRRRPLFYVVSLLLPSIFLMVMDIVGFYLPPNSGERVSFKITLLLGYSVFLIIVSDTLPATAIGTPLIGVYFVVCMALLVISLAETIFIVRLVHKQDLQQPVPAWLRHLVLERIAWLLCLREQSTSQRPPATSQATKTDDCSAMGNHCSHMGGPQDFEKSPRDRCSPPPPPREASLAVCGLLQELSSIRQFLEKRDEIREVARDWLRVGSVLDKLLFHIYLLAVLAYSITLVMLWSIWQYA", "UniProt P42866, sequence (whole entry, looked up)": "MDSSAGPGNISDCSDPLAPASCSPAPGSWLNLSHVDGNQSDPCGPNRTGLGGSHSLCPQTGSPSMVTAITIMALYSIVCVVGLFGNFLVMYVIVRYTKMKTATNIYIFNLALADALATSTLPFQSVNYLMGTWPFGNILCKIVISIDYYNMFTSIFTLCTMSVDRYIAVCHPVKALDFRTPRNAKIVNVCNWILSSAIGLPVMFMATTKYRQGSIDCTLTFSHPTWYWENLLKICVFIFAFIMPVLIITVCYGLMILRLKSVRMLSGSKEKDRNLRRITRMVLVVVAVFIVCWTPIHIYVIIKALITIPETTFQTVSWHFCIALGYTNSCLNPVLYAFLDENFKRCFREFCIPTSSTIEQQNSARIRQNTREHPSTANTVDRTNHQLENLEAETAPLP", "UniProt Q2M2I8, sequence (whole entry, looked up)": "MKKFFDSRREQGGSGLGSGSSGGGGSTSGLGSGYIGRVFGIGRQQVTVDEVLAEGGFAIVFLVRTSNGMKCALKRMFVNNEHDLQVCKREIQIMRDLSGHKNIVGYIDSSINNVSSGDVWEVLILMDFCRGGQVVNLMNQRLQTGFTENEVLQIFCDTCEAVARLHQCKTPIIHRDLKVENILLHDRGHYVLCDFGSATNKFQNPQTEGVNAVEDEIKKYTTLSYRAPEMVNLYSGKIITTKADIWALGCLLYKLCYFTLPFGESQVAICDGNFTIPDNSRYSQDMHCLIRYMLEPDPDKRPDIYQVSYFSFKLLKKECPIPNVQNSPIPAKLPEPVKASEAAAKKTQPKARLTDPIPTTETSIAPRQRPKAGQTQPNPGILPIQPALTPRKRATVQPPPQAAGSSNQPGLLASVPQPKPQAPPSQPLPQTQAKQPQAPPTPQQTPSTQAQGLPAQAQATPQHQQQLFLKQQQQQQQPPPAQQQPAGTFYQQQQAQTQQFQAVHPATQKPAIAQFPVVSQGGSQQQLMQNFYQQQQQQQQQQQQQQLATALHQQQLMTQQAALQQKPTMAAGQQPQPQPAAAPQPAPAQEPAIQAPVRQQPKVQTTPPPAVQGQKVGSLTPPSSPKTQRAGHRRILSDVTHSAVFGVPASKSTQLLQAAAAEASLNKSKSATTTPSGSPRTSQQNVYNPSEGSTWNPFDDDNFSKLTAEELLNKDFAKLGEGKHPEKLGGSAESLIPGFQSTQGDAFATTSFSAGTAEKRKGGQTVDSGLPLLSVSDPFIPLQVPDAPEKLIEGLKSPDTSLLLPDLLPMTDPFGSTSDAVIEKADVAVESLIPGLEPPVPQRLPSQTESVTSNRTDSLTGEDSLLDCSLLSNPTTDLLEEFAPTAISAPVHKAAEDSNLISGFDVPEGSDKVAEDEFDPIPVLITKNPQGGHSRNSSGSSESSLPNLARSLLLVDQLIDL", "UniProt P41145, sequence (whole entry, looked up)": "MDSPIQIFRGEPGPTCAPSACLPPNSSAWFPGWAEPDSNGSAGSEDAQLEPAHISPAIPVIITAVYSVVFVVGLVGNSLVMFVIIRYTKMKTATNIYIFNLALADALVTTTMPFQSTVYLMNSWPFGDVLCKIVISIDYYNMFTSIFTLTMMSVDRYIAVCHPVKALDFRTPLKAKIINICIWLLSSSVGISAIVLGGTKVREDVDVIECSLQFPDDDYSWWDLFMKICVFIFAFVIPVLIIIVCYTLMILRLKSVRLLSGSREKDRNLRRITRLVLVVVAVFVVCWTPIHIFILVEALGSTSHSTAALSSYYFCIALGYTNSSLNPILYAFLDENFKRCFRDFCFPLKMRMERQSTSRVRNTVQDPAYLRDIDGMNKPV"}
{"Compound": "CC(C)C(=O)Nc1c(NC[C@H](O)[C@H](O)[C@H](O)CO)[nH]c(=O)[nH]c1=O", "target": "ribH", "test": "enzyme kinetics", "setting": "pH 7.0", "measurement": "kcat", "value": "0.00183 ± 0.000167 s⁻¹"}
{"Compound": "NCC12C3CCC4C3C3C(CCC31)C42", "target": "Matrix protein 2", "test": "inhibitor", "setting": "100 µM", "measurement": "inhibition", "value": "13 ± 1%"}
{"Compound": "COc1cc(O)c2c(c1)/C=C/C[C@H](O)[C@H](O)C(=O)/C=C\\C[C@H](C)OC2=O", "target": "AP2-associated protein kinase 1 (AAK1, Homo sapiens, UniProt Q2M2I8)", "setting": "10 µM", "scale": "baseline: control", "measurement": "remaining binding", "value": "13%"}
{"Compound": "CCOC(=O)C(=O)Nc1c(NC[C@H](O)[C@H](O)[C@H](O)CO)[nH]c(=O)[nH]c1=O", "target": "ribH", "test": "enzyme kinetics", "setting": "pH 7.0", "measurement": "kcat", "value": "0.00183 ± 0.000167 s⁻¹"}
{"Compound": "CSCC[C@H](NC(=O)[C@H](Cc1ccccc1)NC(=O)CNC(=O)[C@@H](C)NC(=O)[C@@H](N)Cc1ccc(O)cc1)C(=O)N1CCC[C@H]1C(=O)N[C@@H](CC(C)C)C(=O)N[C@@H](Cc1c[nH]c2ccccc12)C(=O)NCc1cc(C(F)(F)F)cc(C(F)(F)F)c1", "target": "Mu-type opioid receptor (Oprm1, Rattus norvegicus, UniProt P33535)", "test": "agonist", "measurement": "Emax", "value": "51 ± 3%"}
{"Compound": "O=C(OCC[18F])C1C2CCC(CC1c1ccc(/C=C\\I)cc1)N2 (centres unmarked)", "target": "SERT", "test": "microPET", "system": "anaesthetised animal, SERT-rich brain regions", "measurement": "time of increasing uptake", "value": "85 to 105 min"}
{"Compound": "CN1CCN(c2nc3ccccc3nc2Cl)CC1", "target": "5-hydroxytryptamine receptor 3A (HTR3A, Homo sapiens, UniProt P46098)", "test": "5-HT response", "setting": "concentration not given", "measurement": "recovery time from inhibition", "value": "~25 min"}
{"Compound": "CNCC12C3CCC4C3C3C(CCC31)C42", "target": "Matrix protein 2", "test": "inhibitor", "setting": "100 µM", "measurement": "inhibition", "value": "15 ± 2%"}
{"Compound": "CC[C@@H]1CN2CC[C@@]3(O)C(=Nc4cccc(OC)c43)[C@@H]2C[C@@H]1/C(=C\\OC)C(=O)OC", "target": "Mu-type opioid receptor (OPRM1, Homo sapiens, UniProt P35372)", "test": "partial agonist", "measurement": "Emax", "value": "47%"}
{"Compound": "CC(C)[C@@H](CN1CC[C@@](C)(c2cccc(C(N)=O)c2)[C@@H](C)C1)NC(=O)[C@H]1Cc2ccc(O)cc2CN1", "target": "Kappa-type opioid receptor (OPRK1, Homo sapiens, UniProt P41145)", "test": "antagonist", "scale": "baseline: Ke delta over Ke kappa", "measurement": "selectivity ratio", "value": 4000}
{"Compound": "CC(=N)NC12C3CCC4C3C3C(CCC31)C42", "target": "Matrix protein 2", "test": "inhibitor", "setting": "100 µM", "measurement": "inhibition", "value": "9.3 ± 2.4%"}
{"Compound": "Nc1c(SC[C@H](O)[C@H](O)[C@H](O)CO)[nH]c(=O)[nH]c1=O", "target": "ribH", "test": "enzyme kinetics", "setting": "pH 7.0", "measurement": "kcat", "value": "0.00317 ± 0.000167 s⁻¹"}
{"Compound": "C1C2C1C1C3C4C5C6CC6C4C14CNCC54C23 (centres unmarked)", "target": "Matrix protein 2", "test": "inhibitor", "setting": "100 µM", "measurement": "inhibition", "value": "86 ± 1%"}
{"Compound": "O=C(N[C@@H]1CC[C@@]2(O)[C@H]3Cc4ccc(O)c5c4[C@@]2(CCN3CC2CC2)[C@H]1O5)c1cccc2ccoc12", "target": "Mu-type opioid receptor (Oprm1, Mus musculus, UniProt P42866)", "test": "agonist", "scale": "baseline: DAMGO", "measurement": "Emax", "value": "27.3%"}
{"note": "Excerpt of the above:"}
{"Compound": "CC(C)[C@@H](CN1CC[C@@](C)(c2cccc(C(N)=O)c2)[C@@H](C)C1)NC(=O)[C@H]1Cc2ccc(O)cc2CN1", "target": "Kappa-type opioid receptor (OPRK1, Homo sapiens, UniProt P41145)", "test": "antagonist", "scale": "baseline: Ke delta over Ke kappa", "measurement": "selectivity ratio", "value": 4000}
{"Compound": "CC(=N)NC12C3CCC4C3C3C(CCC31)C42", "target": "Matrix protein 2", "test": "inhibitor", "setting": "100 µM", "measurement": "inhibition", "value": "9.3 ± 2.4%"}
